Measurements pooled from the literature.
Every numbered part comes from another study and shows a few of its results, in no order. Positions count from the first letter of the parent shown.

Set 1
Target: Fragile X messenger ribonucleoprotein 1, C-terminal low-complexity region (Fmr1, Mus musculus, UniProt P35922)
Method: RNA Bind-n-Seq
Molecule type: RNA
Sample: in vitro
Concentration: 200 nM
Setting: whole 134-nt RNA, ends assumed
Together with: 150 mM LiCl
Baseline: input library
Direction: higher = stronger binding
Quantity: log2 enrichment
Library: 7-deaza-guanosine replaces G
All sequences stand within: GGGAGUUCUACAGUCCGACGAUC … UGGAAUUCUCGGGUGUCAAGG
GAAGAUUGGCUUAAAAUGGCUACUGUGAUGGGAACAGUGUCUUAGGGAGAUGCAGCUUGGACUUGAGGUAAAUUGAAUACUUUACAACUG: 1.03
AGUCCUGUGCUACACAUCGUAUGUACCGAAUCGGGAAAAGGGGAAAAGGGAAAAGGGGAAAGUAUUAUGUUACGCCGUUCGGAUCUGCAC: 0.234
UCCUGUGCUACACAUCGUAUGUACCGAAUCGGGUUUUUUUGGGUUUUUGGGAAAAAGGGAAAGUAUUAUGUUACGCCGUUCGGAUCUGCA: -0.618
GUCCUGUGCUACACAUCGUAUGUACCGAAUCGGGCCCCCCGGCCCCCCGGCCCCCCGGAAAGUAUUAUGUUACGCCGUUCGGAUCUGCAC: 1.18
CUCAAGUCCUGUGCUACACAUCGUAUGUACCGAAUCGGAGGAAAAAAAGGAGGAAAGUAUUAUGUUACGCCGUUCGGAUCUGCACUUCCA: -0.875
GUCCUGUGCUACACAUCGUAUGUACCGAAUCGGGGAAAAAGGGGUGGGGUUUUUGGGGAAAGUAUUAUGUUACGCCGUUCGGAUCUGCAC: -0.155
UGACCUGCACGGACAUCAACACCCUGACAAGGCAGAAGGAACUUCUCCUGCAGAAGCUGAGCACAUUUGAGGAGACCAACCGCACCCUCC: 0.349
GUUAAUUCCACCAUCCCCAUCACAGCAGAAGUUUUCAAGAAGCAUGGAGUGUACAACCCCAACAAAAUCUUCGGCGUGACGACCCUGGAC: 2.05

Set 2
Target: Sal-like protein 4, full length isoform B (SALL4, Homo sapiens, UniProt Q9UJQ4-2, residues 1-616)
Method: universal PBM
Molecule type: double-stranded DNA, one strand shown
Sample: in vitro
Concentration: not given
Setting: 8-mer, flanks averaged, mean of replicates
Direction: higher = stronger binding
Quantity: E-score
Target sequence (chain): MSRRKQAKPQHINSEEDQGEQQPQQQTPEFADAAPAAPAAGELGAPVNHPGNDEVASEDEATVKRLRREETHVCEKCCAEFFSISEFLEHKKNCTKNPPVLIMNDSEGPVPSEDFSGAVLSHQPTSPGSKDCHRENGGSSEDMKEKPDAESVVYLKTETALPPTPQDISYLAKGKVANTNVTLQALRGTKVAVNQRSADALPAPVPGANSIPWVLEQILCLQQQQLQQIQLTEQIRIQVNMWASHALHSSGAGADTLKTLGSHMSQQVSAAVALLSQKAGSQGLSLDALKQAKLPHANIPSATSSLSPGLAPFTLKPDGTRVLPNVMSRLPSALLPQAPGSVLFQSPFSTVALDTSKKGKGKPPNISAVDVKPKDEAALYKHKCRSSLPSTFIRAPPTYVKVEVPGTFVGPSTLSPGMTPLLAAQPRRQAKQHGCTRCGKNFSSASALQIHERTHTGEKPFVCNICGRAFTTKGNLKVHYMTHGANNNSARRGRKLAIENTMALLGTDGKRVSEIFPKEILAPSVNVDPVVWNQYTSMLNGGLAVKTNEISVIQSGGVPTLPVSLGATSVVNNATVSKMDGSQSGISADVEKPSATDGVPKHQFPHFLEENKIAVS
GCATGAAA: 0.155
GCGTAAAA: 0.182
GGCAACAC: -0.0207
ATCCGAGC: -0.0741
CTGCTGAA: -0.0916
CCTAGATA: 0.161
ATGACGCC: -0.0812
GACAACGA: 0.0355
ACTGCGGG: -0.144
AGTTGGCC: -0.226
AGCCGTTA: 0.0449
CGCCTCGA: -0.161
GACGGAAA: 0.0236
GTGTCCGA: -0.0968
GTTGGCTA: -0.121
AGACCCTG: -0.215
CAAAGTCC: -0.146
ACTTAATA: 0.339
CACATGGG: -0.279
CTGGCTCA: -0.168
AATTAACT: 0.222
AATCGGGC: -0.152
GAGTTCAC: -0.208
GATCGGGC: -0.252
ATCTGTAC: 0.201

Set 3
Target: CCNB2, cyclin fold, Cln2 fusion (human)
Method: yeast growth competition, sequencing
Sample: yeast
Setting: weak parent motif
Baseline: not given
Direction: higher = stronger binding
Quantity: normalised enrichment score
Starting sequence: WEE1 docking peptide (human); HKTFRKLRLFDTP
HKTFRKLRLWDTP [F10W]: 0.0233
HKTFRKLRLADTP [F10A]: 0.765
HKFFRKLRLFDTP [T3F]: 0.049
HKTFRKLRLFFTP [D11F]: 0.0535
HKTFRKLRSFDTP [L9S]: 1.08
HKTFLKLRLFDTP [R5L]: -0.254
HKTFRKLRLKDTP [F10K]: 0.518
AKTFRKLRLFDTP [H1A]: 0.744
HKTFRKLRLFCTP [D11C]: 0.611
HKTFRKLRVFDTP [L9V]: 0.604
HKTIRKLRLFDTP [F4I]: 0.938
HKTERKLRLFDTP [F4E]: 0.0544
HKTFRWLRLFDTP [K6W]: 0.359
HKTFRVLRLFDTP [K6V]: 0.0337
HKTFRKLNLFDTP [R8N]: -0.111
HKTFRKLRHFDTP [L9H]: 0.435

Set 4
Target: RNA binding protein fox-1 homolog 2, RRM domain, GST-SBP tag (RBFOX2, Homo sapiens, UniProt O43251-10, residues 100-194)
Method: RNA Bind-n-Seq
Molecule type: RNA
Sample: in vitro
Concentration: 365 nM
Setting: natural RNA segment, single round, ends assumed
Baseline: no-protein control
Direction: higher = stronger binding
Quantity: RBNS enrichment (R)
All sequences stand within: GGGAGUUCUACAGUCCGACGAUC … UGGAAUUCUCGGGUGCCAA
Construct (chain): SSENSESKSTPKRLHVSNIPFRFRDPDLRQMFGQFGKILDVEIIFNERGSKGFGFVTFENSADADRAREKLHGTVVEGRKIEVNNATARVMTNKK
GAUCCCCAGUUUUGUCCCUCCACUUGGGCACACGAGGUCUCAGGGGUCCUCAACCUGGGUCUGUGCCCCCAGCUGUGCCCAGCACCACGGGACCUCCACAGUCCAAUGGC: 0.441
AGUUGUUUCUUCCAAAGAACAAAGCCAGGUUAAUGACAUUCAAUUCUAAAUGAUACAUUGGAAUUGUGCCUUUUCUACCACACUGGAUUAAAUAAACUUGUCAAAAUAUG: 0.334
GAUCCUGGUUCUAUUCUGGGUAUUUCAUCCUGCCUUCCAGAGCACCUUCUGAAGUUCACAUCGUUGGCAUUUCCUUUUUAUGUUAUGCAUACUUUGGCUGAACAAACAUU: 0.21
AUUGCUUGAAUCACACUUUUACUGUGGCUGAAUUUUUUGUGCCUAGUUAUAAAAAAGACACUUCGAAUUAUUUGAGUUAUAAAUAGCUUUUGUGACAGGAGCAUACCCAG: 0.4
AGUAAAAAUGAUGGUAAUUAAAAAAAAUCCUCAGUAUCCCUAGCUUGUCUAUUAACUGUGAUAAUCUGACUUGAGUCAGAUUGAAUAUUUGGAGUGCUUCCCCAGAAUAA: 0.495
GGUGGGCAAGGGCUGCGGCUCUGCCUCCACGACUGGGCGGAAGCCCAGGUAGGGGUGGGGCUGCCCUUCAGCGCAGCAGUGUGGGCUGCAUUUCUGUUCACCAGCCUCCC: 0.205
ACCUUACCAAUAUUAAUCCCAGCGUGGUAACUCUGUGUGACCCCGAUAACAUUUUGUAACAUUGUGCUGCCUUAGAGUUUGUACUGUGAGUUCUAUCAGUAUUUAUGUUG: 0.534
UUUUGGCCAACUUCUCCCACUUGAAAUGGGUGUAUUUAGCCAAUGCCUGUACCUCCGUUGUAUCUAGGAAGUAACUAACUAGCCUUUGAUUUUACAGGCUCAUAGGUGGA: 0.542

Set 5
Target: Histone acetyltransferase KAT6A, winged helix 2, GST fusion (KAT6A, Homo sapiens, UniProt Q92794, residues 85-181)
Method: protein binding microarray
Molecule type: double-stranded DNA, one strand shown
Sample: in vitro
Concentration: not given
Setting: 8-mer, flanks averaged, mean of 2 arrays, mostly near background
Baseline: not given
Direction: higher = stronger binding
Quantity: E-score
Construct (chain): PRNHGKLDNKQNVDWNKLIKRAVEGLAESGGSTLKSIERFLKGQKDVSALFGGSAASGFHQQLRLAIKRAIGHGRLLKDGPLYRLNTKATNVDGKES
CTCGTCAC: 0.142
GACTCAAA: -0.146
GCCAGCGA: 0.116
ATCGATGC: -0.0276
AGACCCTA: -0.189
TAGGACCA: -0.0388
ATACCAAC: 0.003
GGGCAGAA: 0.182
CGGAGGGA: 0.143
GTGTAGGA: -0.163
TATAGCCA: -0.0691
ATGGAGAC: -0.0565
AAACGTGG: -0.259
CTCGCCAG: 0.0157
ATTGGCCC: -0.125
AAAGACCG: -0.0953
